Experimental data of several laboratories.
Numbered parts are unrelated; each lists some results of a single study.

Block 1
Target: Sal-like protein 4, full length isoform B (SALL4, Homo sapiens, UniProt Q9UJQ4-2, residues 1-616)
Technique: universal PBM
Form: double-stranded DNA, one strand shown
Medium: in vitro
Tested at: not given
Notes: 8-mer, flanks averaged, mean of replicates
Direction: higher = stronger binding
Construct (chain): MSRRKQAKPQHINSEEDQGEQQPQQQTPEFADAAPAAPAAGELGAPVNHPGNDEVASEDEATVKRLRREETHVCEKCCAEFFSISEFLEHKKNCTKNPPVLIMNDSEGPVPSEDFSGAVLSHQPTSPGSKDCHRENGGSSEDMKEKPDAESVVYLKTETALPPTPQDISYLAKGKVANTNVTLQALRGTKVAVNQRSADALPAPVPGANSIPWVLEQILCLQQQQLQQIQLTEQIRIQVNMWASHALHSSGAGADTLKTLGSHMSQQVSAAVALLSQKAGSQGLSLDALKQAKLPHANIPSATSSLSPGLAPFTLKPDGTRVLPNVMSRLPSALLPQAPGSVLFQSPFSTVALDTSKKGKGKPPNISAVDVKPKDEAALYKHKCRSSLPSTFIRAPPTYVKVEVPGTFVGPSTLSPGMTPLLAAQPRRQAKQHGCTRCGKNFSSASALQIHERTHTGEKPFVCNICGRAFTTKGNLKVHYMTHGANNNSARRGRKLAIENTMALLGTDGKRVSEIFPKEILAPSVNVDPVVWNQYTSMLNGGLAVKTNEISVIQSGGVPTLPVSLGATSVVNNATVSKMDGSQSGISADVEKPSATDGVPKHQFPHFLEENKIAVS
Sequence	E-score
AGAACAAC	0.0335
AACGGAAT	0.175
CAATTTCG	0.136

Block 2
Target: Interferon regulatory factor 7, full length, phosphomimetic (IRF7, Homo sapiens, UniProt Q92985, residues 1-503, S101K/S471D/S472D/S475D/S476D/S477D/S483D/S484D/S487D)
Chain of UniProt Q92985 (whole entry, unmodified, looked up): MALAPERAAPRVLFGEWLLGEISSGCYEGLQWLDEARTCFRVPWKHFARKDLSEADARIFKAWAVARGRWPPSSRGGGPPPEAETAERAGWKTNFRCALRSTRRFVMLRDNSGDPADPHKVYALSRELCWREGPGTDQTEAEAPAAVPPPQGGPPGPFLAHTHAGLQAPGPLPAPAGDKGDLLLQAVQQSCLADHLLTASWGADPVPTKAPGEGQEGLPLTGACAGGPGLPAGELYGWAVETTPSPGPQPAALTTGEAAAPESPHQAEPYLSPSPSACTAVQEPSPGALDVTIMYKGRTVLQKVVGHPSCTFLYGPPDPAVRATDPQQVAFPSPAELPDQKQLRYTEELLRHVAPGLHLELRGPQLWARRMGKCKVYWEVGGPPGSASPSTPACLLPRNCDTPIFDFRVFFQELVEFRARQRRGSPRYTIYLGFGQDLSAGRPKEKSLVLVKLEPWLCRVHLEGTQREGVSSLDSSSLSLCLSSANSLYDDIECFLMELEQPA
Technique: protein-binding microarray
Form: double-stranded DNA, one strand shown
Medium: in vitro
Tested at: 250 nM
Notes: 60-bp whole probe
With: salmon DNA 0.4 mg/ml
Baseline: random background probes
Direction: higher = stronger binding
Shared flanks, not repeated: GCCTAGCAC … GTCTTGATTCGCTTGACGCTGCTG
Sequence	log fluorescence [z-score]
TTAGGTATCGACATTGGGTTAGTGCTA	0.417
GACGAACTGGGGTATCGAGAAGTGCTA	-0.232
TTAGGACTGCTTTTCCTTTTGTGCTAG	1.53
TTAGGACTGGACTACCGGTTAGTGCTA	-0.283
TTAAGTTTCCTTATCCTTTAGTGCTAG	3.55

Block 3
Target: Histone acetyltransferase KAT6A, winged helix 1, GST fusion (KAT6A, Homo sapiens, UniProt Q92794, residues 1-85)
Technique: protein binding microarray
Form: double-stranded DNA, one strand shown
Medium: in vitro
Tested at: not given
Notes: 8-mer, flanks averaged, mean of 2 arrays, mostly near background
Baseline: not given
Direction: higher = stronger binding
Residues (chain): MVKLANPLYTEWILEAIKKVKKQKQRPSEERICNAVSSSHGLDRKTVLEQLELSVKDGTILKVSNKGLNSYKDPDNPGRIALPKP
Sequence	E-score
ACGGTTGG	0.0851
GCGCGGTA	0.433
GGCGATAC	0.17
AAGGGAAC	-0.174
ACTTAGCC	-0.0448

Mixed results
Substance	target	test	test system	conditions	scale	endpoint	result
PhoQ, residues 284 288 289 292 302 303 SMMNNA	PhoP, residues 12 14 15 18 19 LHSVQ (Escherichia coli, UniProt P23836)	Sort-seq, item: YFP reporter	E. coli	PhoQ-PhoP variant library, with: 10 µM Mg2+	baseline: high Mg2+ state, higher = stronger signaling	fold induction	10.7

Repeated from above (block 1):
Sequence	E-score
CAATTTCG	0.136
